# Experimental data from different studies.
# “And” joins repeats or separate records; there may be more than shown. Numbers after ± are the reported error.
# GLP1R: Glucagon-like peptide 1 receptor (GLP1R, Homo sapiens, UniProt P43220)
SMILES,target or system,assay,test system,conditions,quantity,result
NC(=O)c1nc(F)c[nH]c1=O,Dengue virus,viral replication,"BHK-21, DENV1",120 h,EC50,18 µM
Cc1cc(C)c(/C=C/c2nc(N)[nH]c(=O)c2Br)c(C)c1,parainfluenza-3 virus,virus-induced cytopathicity,Vero,,EC50,> 20 µM
CC[C@H](C)[C@H](NC(=O)[C@H](Cc1ccccc1)NC(=O)[C@H](CCC(=O)O)NC(=O)[C@H](CCCNC(=N)N)NC(=O)[C@H](C)NC(=O)[C@H](C)NC(=O)[C@H](CCC(N)=O)NC(=O)[C@H](CCC(=O)O)NC(=O)[C@H](CCC(=O)O)NC(=O)[C@H](CC(C)C)NC(=O)[C@H](Cc1ccc(O)cc1)NC(=O)[C@H](CO)NC(=O)[C@H](CO)NC(=O)[C@@H](NC(=O)[C@H](CC(=O)O)NC(=O)[C@H](CO)NC(=O)[C@@H](NC(=O)[C@H](Cc1ccccc1)NC(=O)[C@@H](NC(=O)CNC(=O)[C@H](CCC(=O)O)NC(=O)[C@H](C)NC(=O)CCc1cnc[nH]1)[C@@H](C)O)[C@@H](C)O)C(C)C)C(=O)N[C@@H](C)C(=O)N[C@@H](Cc1c[nH]c2ccccc12)C(=O)N[C@@H](CC(C)C)C(=O)N[C@H](C(=O)N[C@@H](CCCCNC(=O)COCCOCCNC(=O)COCCOCCNC(=O)CC[C@H](NC(=O)CCCCCCCCCCCCCCCCC(=O)O)C(=O)O)C(=O)NCC(=O)N[C@@H](CCCNC(=N)N)C(=O)N[C@@H](CCCCNc1c(NCCCCCN(O)C(=O)CCC(=O)NCCCCCN(O)C(=O)CCC(=O)NCCCCCN(O)C(C)=O)c(=O)c1=O)C(=O)NCC(=O)NCC(=O)N[C@@H](CO)C(=O)N[C@@H](CCCCNc1c(NCCCCCN(O)C(=O)CCC(=O)NCCCCCN(O)C(=O)CCC(=O)NCCCCCN(O)C(C)=O)c(=O)c1=O)C(=O)O)C(C)C,GLP1R,"cAMP reporter gene, agonist, CRE luciferase",BHK,"without Zr, 1% HSA",EC50,0.00016 µM
CC[C@H](C)[C@H](NC(=O)[C@H](Cc1ccccc1)NC(=O)[C@H](CCC(=O)O)NC(=O)[C@H](CCCNC(=N)N)NC(=O)[C@H](C)NC(=O)[C@H](C)NC(=O)[C@H](CCC(N)=O)NC(=O)[C@H](CCC(=O)O)NC(=O)[C@H](CCC(=O)O)NC(=O)[C@H](CC(C)C)NC(=O)[C@H](Cc1ccc(O)cc1)NC(=O)[C@H](CO)NC(=O)[C@H](CO)NC(=O)[C@@H](NC(=O)[C@H](CC(=O)O)NC(=O)[C@H](CO)NC(=O)[C@@H](NC(=O)[C@H](Cc1ccccc1)NC(=O)[C@@H](NC(=O)CNC(=O)[C@H](CCC(=O)O)NC(=O)[C@H](C)NC(=O)CCc1c[nH]cn1)[C@@H](C)O)[C@@H](C)O)C(C)C)C(=O)N[C@@H](C)C(=O)N[C@@H](Cc1c[nH]c2ccccc12)C(=O)N[C@@H](CC(C)C)C(=O)N[C@H](C(=O)N[C@@H](CCCNC(=N)N)C(=O)NCC(=O)N[C@@H](CCCNC(=N)N)C(=O)N[C@@H](CCCCNC(=O)COCCOCCNC(=O)COCCOCCNC(=O)CC[C@H](NC(=O)CCCCCCCCCCCCCCCCC(=O)O)C(=O)O)C(=O)NCC(=O)NCC(=O)N[C@@H](CO)C(=O)N[C@@H](CCCCNc1c(NCCCCCN(O)C(=O)CCC(=O)NCCCCCN(O)C(=O)CCC(=O)NCCCCCN(O)C(C)=O)c(=O)c1=O)C(=O)O)C(C)C [zirconium-89 labelled],,,"rat, kidney","iv, 3 nmol/kg, 4 h, ex vivo",tissue uptake,4.75 %ID/g
Cn1nc2c(=O)n(C3CC3)ccc2c1[C@](O)(c1cnc(C(F)(F)F)c(Cl)c1)C(F)(F)F,Saccharomyces cerevisiae,cell growth,,,EC50,21 ± 11 µM
NC1CCN(S(=O)(=O)c2cc(C(=O)Nc3cc(F)c(F)c(F)c3)ccc2F)CC1,Hepatitis B virus,"viral replication, item: intracellular HBV DNA",HepG2.2.15,6 days,EC50,1.37 ± 0.08 µM
CC[C@H](C)[C@@H]([C@@H](CC(=O)N1CCC[C@H]1[C@H](OC)[C@@H](C)C(=O)N[C@H](C)[C@@H](O)c1ccccc1)OC)N(C)C(=O)[C@@H](NC(=O)[C@H](C(C)C)N(C)C(=O)OCc1ccc(NC(=O)[C@H](CCCNC(N)=O)NC(=O)[C@@H](NC(=O)CCCCCN2C(=O)CC(SC[C@H](NC(=O)[C@H](CC(=O)O)NC(=O)[C@H](CCCNC(=N)N)NC(=O)[C@H](CC(=O)O)NC(=O)CCCCn3cc(CCCC(=O)Nc4nnc(S(N)(=O)=O)s4)nn3)C(=O)O)C2=O)C(C)C)cc1)C(C)C (some centres unmarked),,,"BALB/c nu/nu mice, SK-RC-52 xenograft",intravenous,maximal tolerated dose,250 nmol/kg
O=C(O)C[C@H](NC(=O)[C@H](CC(=O)O)NC(=O)[C@H](CC(=O)O)NC(=O)[C@H](CC(=O)O)NC(=O)[C@H](CC(=O)O)NC(=O)[C@H](CC(=O)O)NC(=O)[C@H](CC(=O)O)NC(=O)[C@H](CC(=O)O)NC(=O)[C@H](CC(=O)O)NC(=O)[C@H](CC(=O)O)NC(=O)[C@H](CC(=O)O)NC(=O)[C@H](CCCCNC(=O)c1ccc(C(=O)NCCOCCOB2BBBBBB3BBBB3B2)cc1)NC(=O)CN1CCN(CC(=O)O)CCN(CC(=O)O)CCN(CC(=O)O)CC1)C(=O)O [gallium-67 labelled],,,"ddY male mice, small intestine","intravenous, 37 kBq, 1 h",tissue uptake,0.45 %ID/g
CCN1CCN([C@@H](c2ccccc2)c2ccc(Cl)cc2)CC1,dengue virus,"viral replication, reporter virus particles",Huh-7.5.1,48 h,EC50,11.6 µM
CCC(C)n1ncn(-c2ccc(N3CCN(c4ccc(OCC5COC(Cn6cncn6)(c6ccc(Cl)cc6Cl)O5)cc4)CC3)cc2)c1=O (centres unmarked),Cardiovirus A,"viral replication, inhibitor",,72 h,EC50,0.57 ± 0.02 µM
NC(=O)c1ncn([C@@H]2O[C@H](CO)[C@@H](O)[C@H]2O)n1,Dengue virus,viral replication,"BHK-21, DENV4",120 h,EC50,91 µM
COc1cc2c(Oc3ccc4[nH]c(C)cc4c3F)ccnc2cc1OCC1(N)CC1,,,paediatric recurrent refractory sarcoma,10 mg,grade 1 or 2 ALT elevation,0%
C[C@H]1CN(c2n[nH]c3nc(N[C@H]4CC[C@H](NS(=O)(=O)CCC(F)(F)F)CC4)ncc23)CCO1,Leishmania donovani,cell growth,"promastigotes, LdBOB CRK3 single knockout",,EC50,0.007 ± 0.0001 µM
N#C[C@@]1(c2ccc3c(N)ncnn23)O[C@H](CO)[C@@H](O)[C@H]1O,human coronavirus 229E,viral replication,MRC-5,72 h,EC50,0.76 µM
Nc1ncnc2c1ccn2[C@@]12C[C@H]1[C@H](CO)[C@@H](O)[C@H]2O,Enterovirus A71,"viral replication, neutral red","Vero 76, Tainan/4643/98",,EC50,> 100 µM
CCCCCc1nc(N)[nH]c(=O)c1Br,parainfluenza-3 virus,virus-induced cytopathicity,Vero,,EC50,> 100 µM
Cn1nc2c(=O)n(C3CC3)ncc2c1[C@](O)(c1cnc(C(F)(F)F)c(Cl)c1)C(F)(F)F,Saccharomyces cerevisiae,cell growth,,,EC50,10 ± 6.6 µM
CNC(=O)[C@@]12C[C@@H]1[C@@H](n1cnc3c(NC)nc(C#Cc4ccc(Cl)s4)nc31)[C@H](O)[C@@H]2O,Enterovirus A71,"viral replication, neutral red","Vero 76, Tainan/4643/98",,EC50,> 100 µM
N#C[C@@]1(n2ccc(N)nc2=O)O[C@H](CO)[C@@H](O)[C@H]1O,dengue virus,"viral replication, cell-based",serotype 2,,EC50,> 20 µM
Nc1ncnc2c1ncn2C[C@H](O)CO,parainfluenza-3 virus,virus-induced cytopathicity,Vero,,EC50,> 250 µM
CNC(=O)[C@@]12C[C@@H]1[C@@H](n1cnc3c(NCc4cccc(Cl)c4)nc(C#Cc4ccc(F)c(F)c4)nc31)[C@H](O)[C@@H]2O,Enterovirus A71,"viral replication, neutral red","Vero 76, Tainan/4643/98",,EC50,> 15 µM
CCCc1nc(N)[nH]c(=O)c1Br,parainfluenza-3 virus,virus-induced cytopathicity,Vero,,EC50,> 100 µM
O[C@H]1[C@H]2c3cc4c(cc3CN3CCC(=C[C@@H]1O)[C@H]23)OCO4,dengue virus,"viral replication, reporter virus particles",Huh-7.5.1,48 h,EC50,0.0406 µM
N#Cc1c(Nc2ccc(F)cc2)n[nH]c1NS(=O)(=O)c1ccc2ccccc2c1,dengue virus,viral replication,"Huh-7, New Guinea C",,EC50,> 7.7 µM
CO[C@H]1C[C@@H]2CC[C@@H](C)[C@@](O)(O2)C(=O)C(=O)N2CCCC[C@H]2C(=O)O[C@H]([C@H](C)C[C@@H]2CC[C@@H](OC(=O)NCCOCCOCCOCCOCCOCCOCCOCCOCCC(=O)N3CCc4cc(Cn5nc(-c6ccc7oc(N)nc7c6)c6c(N)ncnc65)ccc4C3)[C@H](OC)C2)C[C@@H](O)[C@H](C)/C=C(\C)[C@@H](O)[C@@H](OC)C(=O)[C@H](C)C[C@H](C)/C=C/C=C/C=C/1C,,,patients with advanced solid tumours,"intravenous, 8 mg weekly, grade 3 or higher",AE leading to discontinuation,12.5%
Nc1nc(CC(O)c2ccccc2C(F)(F)F)c(Br)c(=O)[nH]1 (centres unmarked),parainfluenza-3 virus,virus-induced cytopathicity,Vero,,EC50,> 100 µM
N=C(N)NCCC[C@@H]1NC(=O)[C@H](CCCCNC(=O)c2ccc(CNC34CNCCNCC(N)(CNCCNC3)CNCCNC4)cc2)NC(=O)[C@@H](Cc2ccc(O)cc2)NC(=O)[C@H](CC(=O)O)NC(=O)CNC1=O [copper-64 labelled],,ex vivo biodistribution,"male athymic nude mouse, PC-3 tumour, lung","7.4 MBq, 48 h",tissue uptake,1.14 ± 0.14 %ID/g
COCC(=O)N1CCC[C@H](C(=O)NCc2nc(-c3ccc(C#N)cc3)cs2)C1,Plasmodium falciparum,,Dd2,added: WLW-vs fixed ratio 0.80:0.20,EC50,0.0086 µM and 0.0098 µM
CC[C@H](C)[C@H](NC(=O)[C@H](Cc1ccccc1)NC(=O)[C@H](CCC(=O)O)NC(=O)[C@H](CCCNC(=N)N)NC(=O)[C@H](C)NC(=O)[C@H](C)NC(=O)[C@H](CCC(N)=O)NC(=O)[C@H](CCC(=O)O)NC(=O)[C@H](CCC(=O)O)NC(=O)[C@H](CC(C)C)NC(=O)[C@H](Cc1ccc(O)cc1)NC(=O)[C@H](CO)NC(=O)[C@H](CO)NC(=O)[C@H](CCCCNc1c(NCCCCCN(O)C(=O)CCC(=O)NCCCCCN(O)C(=O)CCC(=O)NCCCCCN(O)C(C)=O)c(=O)c1=O)NC(=O)[C@H](CC(=O)O)NC(=O)[C@H](CO)NC(=O)[C@@H](NC(=O)[C@H](Cc1ccccc1)NC(=O)[C@@H](NC(=O)CNC(=O)[C@H](CCC(=O)O)NC(=O)[C@H](C)NC(=O)CCc1cnc[nH]1)[C@@H](C)O)[C@@H](C)O)C(=O)N[C@@H](C)C(=O)N[C@@H](Cc1c[nH]c2ccccc12)C(=O)N[C@@H](CC(C)C)C(=O)N[C@H](C(=O)N[C@@H](CCCCNc1c(NCCCCCN(O)C(=O)CCC(=O)NCCCCCN(O)C(=O)CCC(=O)NCCCCCN(O)C(C)=O)c(=O)c1=O)C(=O)NCC(=O)N[C@@H](CCCNC(=N)N)C(=O)N[C@@H](CCCCNC(=O)COCCOCCNC(=O)COCCOCCNC(=O)CC[C@H](NC(=O)CCCCCCCCCCCCCCCCC(=O)O)C(=O)O)C(=O)O)C(C)C,GLP1R,"cAMP reporter gene, agonist, CRE luciferase",BHK,"without Zr, 1% HSA",EC50,0.003 µM
COC(=O)N[C@H](C(=O)N1CCC[C@H]1c1ncc(-c2ccc(-c3ccc(-c4cnc([C@@H]5CCCN5C(=O)[C@@H](NC(=O)OC)C(C)C)[nH]4)cc3)cc2)[nH]1)C(C)C,hepatitis C virus,"viral replication, transient replicon",genotype 1a NS5A Y93H,,EC50,0.029 µM
COCC(=O)N1CCC[C@H](C(=O)NCc2nc(-c3ccccc3)cs2)C1,Plasmodium falciparum,,Dd2 β5 S27F resistant,,EC50,43 ± 12 µM
O=C1C(O)=C([C@H]2CC[C@H](c3ccc(Cl)cc3)CC2)C(=O)c2ccccc21,Saccharomyces cerevisiae,cell growth,,,EC50,> 10 µM
O=c1ccn([C@@H]2O[C@H](CO)[C@@H](O)[C@H]2O)c(=S)[nH]1,Dengue virus,viral replication,"BHK-21, DENV1",,EC50,2.6 µM
Nc1nc(CC(O)c2ccc(Cl)cc2)c(Br)c(=O)[nH]1 (centres unmarked),parainfluenza-3 virus,virus-induced cytopathicity,Vero,,EC50,> 100 µM
Nc1ncnc2c1ccn2[C@H]1[C@H](O)[C@H](O)[C@]2(CO)C[C@H]12,Enterovirus A71,"viral replication, neutral red","Vero 76, Tainan/4643/98",,EC50,> 100 µM
